Published values pooled from the literature.
Parts stem from different laboratories: compare values within a part only.

Block 1
Target: Sal-like protein 4, full length isoform A (SALL4, Homo sapiens, UniProt Q9UJQ4, residues 1-1053)
Chain of UniProt Q9UJQ4 (whole entry, looked up): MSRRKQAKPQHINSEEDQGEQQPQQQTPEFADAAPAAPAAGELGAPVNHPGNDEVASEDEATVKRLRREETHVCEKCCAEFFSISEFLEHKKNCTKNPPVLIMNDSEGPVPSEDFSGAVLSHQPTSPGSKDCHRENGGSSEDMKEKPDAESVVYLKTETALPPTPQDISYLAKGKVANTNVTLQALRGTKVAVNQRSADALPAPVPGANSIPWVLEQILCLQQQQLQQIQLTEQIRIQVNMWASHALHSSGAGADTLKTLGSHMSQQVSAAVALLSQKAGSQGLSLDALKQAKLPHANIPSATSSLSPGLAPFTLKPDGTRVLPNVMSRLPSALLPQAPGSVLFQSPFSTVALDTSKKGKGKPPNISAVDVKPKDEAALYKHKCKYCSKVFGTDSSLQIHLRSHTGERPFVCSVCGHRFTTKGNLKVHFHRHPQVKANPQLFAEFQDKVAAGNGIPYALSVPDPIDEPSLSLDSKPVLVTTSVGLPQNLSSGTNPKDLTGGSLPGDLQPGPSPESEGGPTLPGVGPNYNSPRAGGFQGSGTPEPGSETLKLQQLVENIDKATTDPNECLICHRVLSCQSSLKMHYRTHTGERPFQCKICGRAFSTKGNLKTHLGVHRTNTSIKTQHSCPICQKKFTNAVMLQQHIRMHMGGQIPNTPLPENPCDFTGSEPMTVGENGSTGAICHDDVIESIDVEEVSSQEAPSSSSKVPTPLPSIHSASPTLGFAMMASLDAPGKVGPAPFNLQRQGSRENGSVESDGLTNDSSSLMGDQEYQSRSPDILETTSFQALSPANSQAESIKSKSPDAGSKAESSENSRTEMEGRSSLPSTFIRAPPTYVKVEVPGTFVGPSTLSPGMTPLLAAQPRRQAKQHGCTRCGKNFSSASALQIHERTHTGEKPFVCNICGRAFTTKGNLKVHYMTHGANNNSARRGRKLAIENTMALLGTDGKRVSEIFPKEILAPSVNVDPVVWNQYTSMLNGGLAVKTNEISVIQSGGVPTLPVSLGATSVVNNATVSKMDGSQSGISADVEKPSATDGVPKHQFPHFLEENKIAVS
Technique: universal PBM
Molecule type: double-stranded DNA, one strand shown
Sample: in vitro
Tested at: 600 nM
Setting: 8-mer, flanks averaged, mean of replicates
Reading: higher = stronger binding
Measurement: E-score
AGTGACCC: -0.314
TCGTGAGA: -0.114
ACACCAAT: 0.149
TCACAAGA: 0.0193
CGTACAGA: 0.0318

Block 2
Target: Prothrombin, mature alpha-thrombin (F2, Homo sapiens, UniProt P00734)
Technique: aptamer microarray, sandwich
Molecule type: DNA with 2'F-ANA
Sample: in vitro
Tested at: 200 nM
Setting: whole 15-mer aptamer, many near background
Together with: Cy3 exosite-II aptamer, 400 nM
Reading: higher = stronger binding
Measurement: mean fluorescence intensity
GGTTGGTGTGGTTGG (2'F-ANA at 1 2 4 8 9 14 15): 48.6 a.u.
GGTTGGTGTGGTTGG (2'F-ANA at 1 2 3 4 5 7 8 9 11 14 15): 46.8 a.u.
GGTTGGTGTGGTTGG (2'F-ANA at 4 5 8 10 11 12 13 15): 59.4 a.u.
GGTTGGTGTGGTTGG (2'F-ANA at 1 4 5 6 7 11 14 15): 49.3 a.u.

Block 3
Target: Histone acetyltransferase KAT6A, both winged helices, GST fusion (KAT6A, Homo sapiens, UniProt Q92794, residues 1-181)
Technique: protein binding microarray
Molecule type: double-stranded DNA, one strand shown
Sample: in vitro
Tested at: not given
Setting: 8-mer, flanks averaged, mean of 2 arrays, mostly near background
Baseline: not given
Reading: higher = stronger binding
Measurement: E-score
Target sequence (chain): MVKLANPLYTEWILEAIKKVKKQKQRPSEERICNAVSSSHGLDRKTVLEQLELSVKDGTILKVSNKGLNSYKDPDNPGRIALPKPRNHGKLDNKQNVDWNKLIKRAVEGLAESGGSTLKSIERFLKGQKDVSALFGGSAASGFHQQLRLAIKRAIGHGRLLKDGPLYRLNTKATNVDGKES
CATACTGG: -0.0254
ATGCGAAA: 0.00605
ACAATCCT: -0.128
ACAATATG: -0.0632
TAGTCTGA: -0.106
CTTTCCTC: -0.147
GCACAATA: 0.0174
CTCGTATA: -0.11
CTCTAGTC: -0.0847

Further values, each from its own experiment
PhoQ, residues 284 288 289 292 302 303 SNGLAW — fold induction (PhoP, residues 12 14 15 18 19 MHTVL (Escherichia coli, UniProt P23836); Sort-seq, refers to: YFP reporter; E. coli; PhoQ-PhoP variant library, together with: 10 µM Mg2+; baseline: high Mg2+ state, higher = stronger signaling): 12.4

A few entries again (block 3):
ACAATCCT: -0.128
ACAATATG: -0.0632
